Measured values gathered from unrelated publications.
Lines come from different studies, so protocols differ. “And” joins repeats or separate records; there may be more than shown. Numbers after ± are the reported error.

Cc1cc([C@H]2C[C@H]3[C@@H](C)SC(N)=N[C@@]3(c3ccc(F)cc3F)CO2)on1 — brain concentration (male 129/SVE mouse, brain; subcutaneous, 50 mg/kg, 5 h): 1.48 µM
CN(C)CC#Cc1ccc2[nH]c3c(c2c1)-c1nc(N)ncc1CCC3 — brain concentration (male CD-1 mouse, brain; intraperitoneal, 30 mg/kg, 1 h): 416 ng/g
Cc1ccc2c(c1)C(=O)[C@]1(O)CCN(c3ccc4nc(C)ccc4c3)C1=N2 — brain concentration (C57BL/6 mouse, brain; subcutaneous, 2 mg/kg, 30 min): 0.4 ± 0.04 µM
CN1C(=O)c2ccccc2[S@+]([O-])c2ccc(C(=O)NCCc3cccs3)cc21 — brain concentration (C57BL/6 mouse, male, brain; intraperitoneal, 30 mg/kg, single dose, 24 h, quantification limit 1 ng/mL): not detected
COc1cc2c(Nc3ccc(Cl)c(Cl)c3F)ncnc2cc1OC[C@@H]1C[C@@H]2CN(C)C[C@@H]2C1 — brain concentration (FVB wild-type mouse; oral, 70 mg/kg, 2 h): 720 ng/g
O=S(=O)(c1ccc(-c2ccc3nccc(Nc4ccncn4)c3c2)cc1)N1CCOCC1 — brain concentration (female BALB/c mouse, brain; intraperitoneal, 10 mg/kg, 0.08 h): 90.9 ng/g and 87.4 ng/g
CCCCCN1C[C@H](O)[C@@H](O)[C@H](O)[C@@H]1CO — brain concentration (LC-MS/MS; Hexb-/- mouse, brain; oral, food admix, 30 mg/kg/day, about 75 days): 0.16 µM
Cn1ncnc1[C@H]1c2n[nH]c(=O)c3cc(F)cc(c23)N[C@@H]1c1ccc(F)cc1 — brain concentration (FVB mouse Mdr1a/b-/- Bcrp-/-, brain; oral, 0.15 mg/kg, 2 h, single dose): 17.3 ± 3.8 ng/g
Cc1c2ccnc(C(=O)NCCN(C)C)c2cc2c3cc(O)ccc3n(C)c12 — brain concentration (C57BL/6J mouse, brain; intraperitoneal, 10 mg/kg, 120 min): 0.24 µM
Cn1cc([C@H]2C[C@H]3CSC(N)=N[C@@]3(c3ccc(F)cc3F)CO2)cn1 — brain concentration (male 129/SVE mouse, brain; subcutaneous, 3 mg/kg, 6 h): 0.1 µM
